Measured values pooled from the literature.
A part holds a random share of what one study measured. Changes are numbered by the printed parent chain.

Series 1
Target: Histone acetyltransferase KAT6A, winged helix 1, GST fusion (KAT6A, Homo sapiens, UniProt Q92794, residues 1-85)
Technique: protein binding microarray
Molecule type: double-stranded DNA, one strand shown
Medium: in vitro
Tested at: not given
Notes: 8-mer, flanks averaged, mean of 2 arrays, mostly near background
Reference: not given
Direction: higher = stronger binding
Construct (chain): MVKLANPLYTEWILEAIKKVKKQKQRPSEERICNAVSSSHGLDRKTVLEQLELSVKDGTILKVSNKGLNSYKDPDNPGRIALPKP
For `ATCGTTGC`, the E-score was -0.139.
`CAGTACTC` has an E-score of -0.0714.
With `ACTCATTG` the E-score was -0.162.
The E-score of `ATTTAAGA` is reported as -0.216.
`CAAGATGA` gave an E-score of -0.241.
`GAACGTTA` has an E-score of 0.097.
`ATGGGTTA` gave an E-score of -0.101.
With `CCCACTAC` the E-score was -0.323.
The E-score of `CCATGCCC` is reported as -0.0978.
For `CAGTTTAG`, the E-score was -0.157.
With `CGGCAGCA` the E-score was 0.284.
The E-score of `CTAGTCAG` is reported as -0.265.
For `AGAAACCG`, the E-score was 0.0938.
For `AAGGCCGT`, the E-score was 0.302.
`CCGACCCC` has an E-score of 0.26.
The E-score of `CCATATCA` is reported as -0.121.
For `AGCTCCCC`, the E-score was -0.0882.
For `GAGCTTCA`, the E-score was -0.102.
`GTAGACTA` has an E-score of -0.0652.
For `ATTCTGCA`, the E-score was -0.223.
The E-score of `CACTCCAA` is reported as -0.191.
`CTGTGAGA` gave an E-score of -0.156.
The E-score of `AAGAGACG` is reported as 0.0589.
`CGGGCATC` has an E-score of 0.166.
`GCCCTAAC` gave an E-score of 0.127.

Series 2
Target: ABI1, truncated, D143A, DHFR fusion (Arabidopsis thaliana)
Technique: DHFR PCA, deep sequencing
Medium: yeast
Notes: methotrexate growth selection, single substitutions
Added: (+)-ABA 200 µM
Reference: wild-type fitted maximum
Direction: higher = stronger binding
Starting sequence: PYL1, truncated, DHFR fusion (Arabidopsis thaliana); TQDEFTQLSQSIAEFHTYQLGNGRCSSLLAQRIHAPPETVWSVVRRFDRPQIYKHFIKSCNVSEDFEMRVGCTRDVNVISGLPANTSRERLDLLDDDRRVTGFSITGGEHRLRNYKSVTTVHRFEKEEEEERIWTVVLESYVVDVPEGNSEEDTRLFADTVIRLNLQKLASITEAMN; partner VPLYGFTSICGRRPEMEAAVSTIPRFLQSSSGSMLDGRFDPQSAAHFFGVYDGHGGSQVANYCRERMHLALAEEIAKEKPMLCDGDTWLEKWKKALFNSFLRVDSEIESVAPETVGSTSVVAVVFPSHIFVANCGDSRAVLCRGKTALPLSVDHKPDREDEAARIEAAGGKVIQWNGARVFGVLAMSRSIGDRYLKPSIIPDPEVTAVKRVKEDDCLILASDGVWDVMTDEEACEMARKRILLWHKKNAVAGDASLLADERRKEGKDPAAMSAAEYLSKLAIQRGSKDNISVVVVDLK
For `V142T`, “relative binding score” read 94.6%.
`L94F`: “relative binding score” 105%.
`K58N`: “relative binding score” 87.4%.
`L94P`: “relative binding score” -14.4%.
Under “relative binding score”, `E147V` is recorded as 95.4%.
`A35W`: “relative binding score” 8.6%.
Under “relative binding score”, `R163P` is recorded as 4.54%.
For `F56Y`, “relative binding score” read 88.3%.
`F47Y` — result for “relative binding score”: 65.9%.
Under “relative binding score”, `E174R` is recorded as 82.7%.
`R99Q`: “relative binding score” 96.7%.
`E130V` — result for “relative binding score”: 106%.
Under “relative binding score”, `Q7N` is recorded as 96.6%.
`R90V`: “relative binding score” 94.4%.
Under “relative binding score”, `H55Q` is recorded as 110%.
`L156T`: “relative binding score” 100%.
`S117K` — result for “relative binding score”: -6.65%.
Under “relative binding score”, `T101H` is recorded as 59.1%.

Series 3
Target: Sal-like protein 4, full length isoform A (SALL4, Homo sapiens, UniProt Q9UJQ4, residues 1-1053)
Chain of UniProt Q9UJQ4 (whole entry, looked up): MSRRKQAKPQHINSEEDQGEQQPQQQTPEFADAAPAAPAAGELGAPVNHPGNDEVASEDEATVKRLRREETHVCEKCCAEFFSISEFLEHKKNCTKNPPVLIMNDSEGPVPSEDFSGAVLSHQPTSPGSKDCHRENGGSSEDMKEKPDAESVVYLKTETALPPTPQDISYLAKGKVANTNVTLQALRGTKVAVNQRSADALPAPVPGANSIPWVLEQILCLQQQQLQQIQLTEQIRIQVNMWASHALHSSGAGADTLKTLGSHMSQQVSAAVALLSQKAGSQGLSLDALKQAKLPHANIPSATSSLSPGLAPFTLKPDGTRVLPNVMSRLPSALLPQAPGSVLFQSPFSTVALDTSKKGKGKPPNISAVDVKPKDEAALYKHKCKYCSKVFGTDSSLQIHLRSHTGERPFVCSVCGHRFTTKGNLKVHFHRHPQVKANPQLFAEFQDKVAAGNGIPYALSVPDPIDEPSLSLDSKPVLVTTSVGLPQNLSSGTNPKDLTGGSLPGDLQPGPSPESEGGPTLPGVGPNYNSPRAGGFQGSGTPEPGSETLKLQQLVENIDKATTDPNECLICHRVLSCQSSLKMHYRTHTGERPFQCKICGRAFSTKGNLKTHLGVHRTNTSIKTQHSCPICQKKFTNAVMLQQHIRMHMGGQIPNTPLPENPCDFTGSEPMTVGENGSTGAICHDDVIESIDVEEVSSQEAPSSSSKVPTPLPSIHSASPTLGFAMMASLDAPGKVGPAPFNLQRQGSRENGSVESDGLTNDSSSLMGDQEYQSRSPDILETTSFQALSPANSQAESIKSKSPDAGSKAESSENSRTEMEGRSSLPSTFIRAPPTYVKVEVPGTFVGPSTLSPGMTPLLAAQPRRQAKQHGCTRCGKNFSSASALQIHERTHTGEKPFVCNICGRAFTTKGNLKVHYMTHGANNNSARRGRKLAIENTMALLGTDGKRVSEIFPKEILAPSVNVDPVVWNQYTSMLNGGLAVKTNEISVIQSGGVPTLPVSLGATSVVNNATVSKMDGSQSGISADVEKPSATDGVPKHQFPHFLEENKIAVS
Technique: universal PBM
Molecule type: double-stranded DNA, one strand shown
Medium: in vitro
Tested at: 600 nM
Notes: 8-mer, flanks averaged, mean of replicates
Direction: higher = stronger binding
For `CAATGGCG`, the E-score was -0.305.
`CCGCTCGC` gave an E-score of -0.23.
For `AGCTCGCA`, the E-score was -0.173.
For `ATCTACAA`, the E-score was 0.213.
`CTGGCCCA` gave an E-score of -0.298.
The E-score of `AGGACGAC` is reported as -0.322.
`CTCGCGTA` has an E-score of -0.103.
`TACCACAA` has an E-score of 0.273.
`AAGGTAGG` gave an E-score of 0.0408.
For `CTGGTTGC`, the E-score was -0.138.
`CCTCCTAC` has an E-score of -0.227.
`AATTCCCC` has an E-score of 0.0823.
`AAAATATG` has an E-score of 0.435.
With `TAACCTAA` the E-score was 0.238.
`CCGGGTGA` has an E-score of -0.334.
With `GGCCGGTA` the E-score was -0.232.
`GAGACGAA` gave an E-score of 0.0298.
With `GAGTATTA` the E-score was 0.308.
For `CGATACCA`, the E-score was 0.0745.
`CAGGCTAC` gave an E-score of -0.134.

Series 4
Target: Ras GTPase-activating protein-binding protein 1, full length (G3BP1, Homo sapiens, UniProt Q13283)
Chain of UniProt Q13283 (whole entry, looked up): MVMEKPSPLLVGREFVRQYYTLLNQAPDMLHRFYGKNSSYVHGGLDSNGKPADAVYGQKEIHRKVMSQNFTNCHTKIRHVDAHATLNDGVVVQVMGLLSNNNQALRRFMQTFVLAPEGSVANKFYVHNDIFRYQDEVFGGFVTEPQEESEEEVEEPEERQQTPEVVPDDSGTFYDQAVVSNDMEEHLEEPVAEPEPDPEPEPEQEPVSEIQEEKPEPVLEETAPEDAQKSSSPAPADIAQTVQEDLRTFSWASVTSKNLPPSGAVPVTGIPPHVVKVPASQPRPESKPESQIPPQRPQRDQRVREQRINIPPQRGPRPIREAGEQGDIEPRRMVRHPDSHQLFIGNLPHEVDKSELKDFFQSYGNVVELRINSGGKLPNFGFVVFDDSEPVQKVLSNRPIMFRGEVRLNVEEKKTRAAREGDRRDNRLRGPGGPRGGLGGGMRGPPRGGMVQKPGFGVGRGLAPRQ
Technique: RNA Bind-n-Seq
Molecule type: RNA
Medium: in vitro
Tested at: 200 nM
Notes: whole 134-nt RNA, ends assumed
Added: 150 mM KCl
Reference: input library
Direction: higher = stronger binding
The log2 enrichment of `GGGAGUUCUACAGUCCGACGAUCCUCAAGUCCUGUGCUACACAUCGUAUGUACCGAAUCGGGCGGGGCGGGGCGGGAAAGUAUUAUGUUACGCCGUUCGGAUCUGCACUUCCAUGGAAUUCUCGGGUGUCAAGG` is reported as 1.49.
With `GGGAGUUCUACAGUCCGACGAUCUCCUGUGCUACACAUCGUAUGUACCGAAUCAAACCCCCAAAUUUUUAAACCCCCCCAAAAAAGUAUUAUGUUACGCCGUUCGGAUCUGCAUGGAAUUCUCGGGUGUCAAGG` the log2 enrichment was -0.0352.
With `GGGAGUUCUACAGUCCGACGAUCACCAUGCAGGUGGGCAUCUUUGGGAAGUGGGGCAAGGGAAAGAUAGGGAGGGGGGUAACACUUUGGGAACAGGUGGUCCCAGGUCGUUUCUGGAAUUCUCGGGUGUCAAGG` the log2 enrichment was 1.05.
The log2 enrichment of `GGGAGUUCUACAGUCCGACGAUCUAACUUUAGAGGAGGAUCUGAUGGAUAUGGCAGUGGCCGUGGAUUUGGGGAUGGCUAUAAUGGGUAUGGAGGAGGACCUGGAGGUGGCAAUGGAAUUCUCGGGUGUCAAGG` is reported as 0.225.
`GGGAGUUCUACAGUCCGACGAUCUUAAAACAUGGCAACUUGUAAUUGUUUUCUUUCUUAGGAACAUCAUUCAUGGCAGUGAUUCAGUAAAAAGUGCUGAAAAAGAAAUCAGCCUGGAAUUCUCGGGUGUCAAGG` gave a log2 enrichment of 0.5.
`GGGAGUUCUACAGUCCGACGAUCAAGUCCUGUGCUACACAUCGUAUGUACCGAAUCAAACCCCCAAAUUUAAACCCAAAAAAGUAUUAUGUUACGCCGUUCGGAUCUGCACUUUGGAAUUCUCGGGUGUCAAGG` gave a log2 enrichment of -0.312.
`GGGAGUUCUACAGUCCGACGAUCUAACUUUAGAGGAGGAUCUGAUGGAUAUGGCAGUGGACGUGGAUUUGGGGAUGGCUAUAAUUGGUAUGGAGGAGGACCUGGAGGUGGCAAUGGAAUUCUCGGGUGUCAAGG` has a log2 enrichment of 0.224.
`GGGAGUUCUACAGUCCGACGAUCCUCAAGUCCUGUGCUACACAUCGUAUGUACCGAAUCGGGAAGGGGAAGGGAAGGAAAGUAUUAUGUUACGCCGUUCGGAUCUGCACUUCCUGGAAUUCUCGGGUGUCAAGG` gave a log2 enrichment of -0.153.
For `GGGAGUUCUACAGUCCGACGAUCUCCUCAAGUCCUGUGCUACACAUCGUAUGUACCGAAUCGGGCGGCGGCGGGAAAGUAUUAUGUUACGCCGUUCGGAUCUGCACUUCCAGCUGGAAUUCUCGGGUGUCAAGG`, the log2 enrichment was -0.341.
With `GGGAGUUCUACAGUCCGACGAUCUGGCCCUGGUGGCAUGCGGGGAGGAAGAGGUGGCCUCAUAGAUCGUGGUGGUCCCGGUGGAAUGUUCAGAGGUGGCCGUGGUGGAGACAGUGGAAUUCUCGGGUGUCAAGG` the log2 enrichment was 0.217.

Series 5
Target: CCND2, cyclin fold, Cln2 fusion (human)
Technique: yeast growth competition, sequencing
Medium: yeast
Notes: weak parent motif
Reference: not given
Direction: higher = stronger binding
Starting sequence: SLBP docking peptide (human); ARYKRKLLINDFG; partner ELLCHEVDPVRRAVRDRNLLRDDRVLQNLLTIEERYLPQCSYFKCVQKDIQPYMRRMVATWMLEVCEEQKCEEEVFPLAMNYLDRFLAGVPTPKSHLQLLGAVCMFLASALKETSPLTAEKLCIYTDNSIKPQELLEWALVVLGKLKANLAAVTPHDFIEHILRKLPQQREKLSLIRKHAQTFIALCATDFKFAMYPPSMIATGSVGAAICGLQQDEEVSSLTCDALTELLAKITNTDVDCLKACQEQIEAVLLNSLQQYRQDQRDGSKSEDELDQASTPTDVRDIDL
For `ARYKRMLLINDFG [K6M]`, “normalised enrichment score” read 0.15.
Under “normalised enrichment score”, `ALYKRKLLINDFG [R2L]` is recorded as 0.106.
`ARYKRKRLINDFG [L7R]`: “normalised enrichment score” 0.527.
`ARYKRKLLGNDFG [I9G]`: “normalised enrichment score” 0.0487.
For `AYYKRKLLINDFG [R2Y]`, “normalised enrichment score” read 0.934.
`ARYFRKLLINDFG [K4F]`: “normalised enrichment score” 0.193.
For `ARYKRKILINDFG [L7I]`, “normalised enrichment score” read -0.0932.
Under “normalised enrichment score”, `ARYKWKLLINDFG [R5W]` is recorded as -0.381.
`ARYKRKLLINDHG [F12H]`: “normalised enrichment score” 0.134.
Under “normalised enrichment score”, `ARNKRKLLINDFG [Y3N]` is recorded as 0.228.
`ARYKRKLLINDPG [F12P]`: “normalised enrichment score” 0.196.
`ARYKRKLLFNDFG [I9F]`: “normalised enrichment score” 0.352.
Under “normalised enrichment score”, `AGYKRKLLINDFG [R2G]` is recorded as 0.644.
For `ARYKRKGLINDFG [L7G]`, “normalised enrichment score” read 0.127.
`ARIKRKLLINDFG [Y3I]` — result for “normalised enrichment score”: 0.275.
`AQYKRKLLINDFG [R2Q]` — result for “normalised enrichment score”: 0.65.
Under “normalised enrichment score”, `ARYKRKLLINFFG [D11F]` is recorded as -0.302.
Under “normalised enrichment score”, `ARYKRSLLINDFG [K6S]` is recorded as 0.0495.
`ARYKRALLINDFG [K6A]` — result for “normalised enrichment score”: 0.45.
Under “normalised enrichment score”, `ARYKRKLLQNDFG [I9Q]` is recorded as -0.365.
`ARYKRKLLINTFG [D11T]` — result for “normalised enrichment score”: 0.055.
For `ARYKRKLLINDFA [G13A]`, “normalised enrichment score” read -0.202.
For `HRYKRKLLINDFG [A1H]`, “normalised enrichment score” read 0.165.
`ARYKRCLLINDFG [K6C]`: “normalised enrichment score” 0.904.
For `ARYNRKLLINDFG [K4N]`, “normalised enrichment score” read 0.273.

Excerpt of the above (series 5):
Under “normalised enrichment score”, `ARYKRKLLQNDFG [I9Q]` is recorded as -0.365.
`ARYKRKLLFNDFG [I9F]`: “normalised enrichment score” 0.352.
Under “normalised enrichment score”, `ALYKRKLLINDFG [R2L]` is recorded as 0.106.
`ARYKRKLLINDPG [F12P]`: “normalised enrichment score” 0.196.
`ARIKRKLLINDFG [Y3I]` — result for “normalised enrichment score”: 0.275.
Under “normalised enrichment score”, `ARYKWKLLINDFG [R5W]` is recorded as -0.381.
Under “normalised enrichment score”, `ARYKRKLLINFFG [D11F]` is recorded as -0.302.
`ARYKRKRLINDFG [L7R]`: “normalised enrichment score” 0.527.
`ARYKRKLLINTFG [D11T]` — result for “normalised enrichment score”: 0.055.
For `HRYKRKLLINDFG [A1H]`, “normalised enrichment score” read 0.165.
Under “normalised enrichment score”, `ARNKRKLLINDFG [Y3N]` is recorded as 0.228.
For `AYYKRKLLINDFG [R2Y]`, “normalised enrichment score” read 0.934.
For `ARYKRKILINDFG [L7I]`, “normalised enrichment score” read -0.0932.
`AQYKRKLLINDFG [R2Q]` — result for “normalised enrichment score”: 0.65.
